# Measurements collected from several papers.
# Protocols differ between the studies behind these lines. ± marks the error that the study gave.
SMILES,test,test system,setting,Vd/F
Cc1ccc(=O)n(-c2ccccc2)c1,,healthy human,"oral, 600 mg single, alone",52.1 L
C[C@H](O)c1cc(C(=O)N[C@@H](C)Cn2ccc(-c3ccc(C#N)c(Cl)c3)n2)n[nH]1,,"human, fasted","oral, 300 mg darolutamide tablet, geometric mean",337 L
CCCn1cc(C)c2c(=O)[nH]c(-c3cc(S(=O)(=O)N4CCN(CC)CC4)ccc3OCC)nc21,,human,"oral, 100 mg, together with: alcoholic beverage 0.5 g/kg",2770 ± 1110 L
Cn1c(=O)oc2ccc(-c3ccc(C[C@@H](C#N)NC(=O)[C@@H]4CNCCCO4)cc3)cc21,,"human, moderate renal impairment, plasma","oral, 25 mg single dose, mean",359 L
CCN1CCN(Cc2ccc(Nc3ncc(F)c(-c4cc(F)c5nc6n(c5c4)[C@H](C)CCC6)n3)nc2)CC1,,"human, plasma","50 mg single dose, mean",1880 L
CCN1[C@@H](C(=O)NC23CCC(C(=O)O)(CC2)CC3)[C@H](c2cccc(Cl)c2F)[C@]2(C(=O)Nc3cc(Cl)ccc32)C12CCCCC2,,human,"oral, single dose, mean across doses",46.8 to 87.2 L
O=C(O)CCC(=O)O.[2H]C([2H])([2H])Oc1cc(C)c2[nH]ccc2c1CN1CC[C@@H](C2CC2)C[C@H]1c1ccc(C(=O)O)cc1,"LC-MS/MS, mean","human, plasma","600 mg, single dose, fasting",128 L
CC(C)c1nc(N(C)S(C)(=O)=O)nc(-c2ccc(F)cc2)c1/C=C/[C@@H](O)C[C@@H](O)CC(=O)O,,"human, plasma","oral, 20 mg, day 2, mean, single agent",10400 L
